Published values collected from several papers.
Numbered parts are unrelated; each lists some results of a single study. Positions count from the first letter of the parent shown.

Series 1 — technique: universal PBM; molecule type: double-stranded DNA, one strand shown; medium: in vitro; tested at: not given; reading: higher = stronger binding
Target: Sal-like protein 4, full length isoform B (SALL4, Homo sapiens, UniProt Q9UJQ4-2, residues 1-616)
Notes: 8-mer, flanks averaged, mean of replicates
Oligonucleotide	E-score
CGAGCGGC	-0.405
ACTCTGCA	-0.0832
AGTGATCC	-0.105
CGCATGCG	-0.235
CAACCCGG	-0.415
TCAACACA	0.165
CGGGAGGA	-0.288
AAACGGAT	0.0623
AACACGAC	0.0344
GACCCTGA	-0.258
AGGCTTGA	-0.0391
CCTGCACG	-0.0853
CATGCATG	0.256
ACGAGGTA	-0.018
GGACGTCC	-0.134
GACTCGAC	-0.139
GCACACAA	0.0186
ACCGGAAT	-0.134
CGTCCCGA	-0.215
CCAGACGG	-0.382
AAGGCCTG	-0.126
AGAGGGAC	-0.233
ACCTAAGC	-0.124
TAGCGCCA	-0.152
CTTGCACA	0.0527

Series 2 — technique: RNA Bind-n-Seq; molecule type: RNA; medium: in vitro; tested at: not given; reference: input RNA pool; reading: higher = stronger binding
Target: RING finger protein unkempt homolog, zinc fingers 1-6, GST-SBP tag (UNK, Homo sapiens, UniProt Q9C0B0, residues 30-357)
Notes: RNA with constant flanks, human and mouse sites, ends assumed
Residues (chain): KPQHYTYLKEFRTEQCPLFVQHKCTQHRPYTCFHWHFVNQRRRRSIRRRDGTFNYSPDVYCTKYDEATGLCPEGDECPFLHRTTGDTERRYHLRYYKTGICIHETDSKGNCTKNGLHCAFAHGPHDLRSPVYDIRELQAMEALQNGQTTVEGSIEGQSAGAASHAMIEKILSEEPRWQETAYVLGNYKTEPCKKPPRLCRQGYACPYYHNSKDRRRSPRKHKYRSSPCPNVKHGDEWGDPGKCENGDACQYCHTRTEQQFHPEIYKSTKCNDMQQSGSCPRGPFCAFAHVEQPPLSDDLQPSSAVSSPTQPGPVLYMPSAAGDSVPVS
Oligonucleotide	bound/input enrichment
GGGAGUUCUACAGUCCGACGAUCAGAGAAAUCCUGUCAGAUGACAAGCAUGACUGGGAGCAGAGAGUAAAUGCUCUAAAAAAGAUUAGAUCGUUACUCUUGGCUGGGGCUGCUGAGUACGAUAACUUCUUUCAACACUUGCGUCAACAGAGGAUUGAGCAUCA	0.114 ratio
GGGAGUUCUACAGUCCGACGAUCAUGGAACUCGCCUAUCAGACUUUACUAGAGGCAACAACCAGUAGUGAUCAAUGUGCUGUUCAACUUUUCUACUCAGUGAGGAAUAUCUUCCAUUUGUUCCAUGAUGUUGUACCAACAUAUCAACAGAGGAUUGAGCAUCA	0.254 ratio
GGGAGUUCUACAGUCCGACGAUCUAGUCCUCCAAGAAGAAAGCACCAAGACAACAUUUCAUAUGACUAUAAUGCAUGUACUAUAUAAGCUGAUCUGGCUUUGAAAGAUGUGAGUUGGCAAGUUCCUCACAUAGAGUCAUUGUACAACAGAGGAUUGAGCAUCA	0.234 ratio
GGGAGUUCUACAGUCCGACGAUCAGUUAUGAGGCUGAGAUCUCCACUAGACCAUGCCUUGCAUUAGCUCCAGAUAGCCCAGAUAAUGAUCUCAGAGCUGGUCAGUUUGGAAUUUCUGCCAGAAAGCCAUUCACCACUCUGGGUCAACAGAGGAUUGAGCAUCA	4.13 ratio
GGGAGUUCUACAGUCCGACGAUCGGAAGAAAACCAGAUUUUUAGCCUUCUUGCCAAAUCCAGACCUCUGGUUGAUUUUUCUUUGACAGAAGAUGCAAGUUAUUUUCCAAUUUCACAAUUAAAUGUAUUUAACCUGAACAUUAUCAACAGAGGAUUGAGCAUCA	1.6 ratio
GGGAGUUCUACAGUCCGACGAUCAAAAUCUCUGAUGACCUGAUGCAGAAGAUCAGCACUCAGAACCGCCGAGCCCUGGACCUCGUAGCUGCCAAGUGUUACUAUUAUCACGCCCGGGUCUAUGAGUUCCUGGACAAGCUGGAUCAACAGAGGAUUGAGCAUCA	0.141 ratio
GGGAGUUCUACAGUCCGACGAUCGAAAUGGCAACCACAGAGGAUGCUCAGGCCGCAGUGGAUUAUUACACAACCACACCAGCGUUAGUAUUUGGCAAGCCAGUGAGAGUUCAUUUAUCCCAGAAGUAUAAAAGAAUAAAGAAACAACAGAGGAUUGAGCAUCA	0.676 ratio
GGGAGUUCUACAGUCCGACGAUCUAUGAUGUCCUGGUUGCCAUGACUAUCUUUUUCAACACUCACAAUGAGCCAGUGCGGCAGUUGGCUAUUUUCUGUCCCCAUGUGGCACUCCAAACAACGAUCUGUGAAGUCCUGGAACGCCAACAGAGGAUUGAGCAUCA	0.17 ratio
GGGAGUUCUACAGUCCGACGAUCCAAGAAGGUUGUUGCUUGGUUCGUUCCAAAGAUGAAGAAGCAGACAAUGAUAAUUAUGAAGUUUUAUUCAAUUUGGAGGAACUUAAGUUAGACCAGCCCUUCAUUGAUUGUAUCAGAGUUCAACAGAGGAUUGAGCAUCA	0.149 ratio
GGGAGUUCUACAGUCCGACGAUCCUCGAGCUACAUUGUGUGUUUUGACUGUUUUAUUUAAGGGAUUGGAGUGGGUUGUGUUUGUUUUUUUUUUAUCACACGUAGAGUGCCCGUUCCCUGGCAGGCCUAGGUUGCCACUCCUCUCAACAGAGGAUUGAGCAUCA	0.819 ratio
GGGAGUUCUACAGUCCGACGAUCGAUCUUGGACUGGACAUUGGUGCCCAGGGAGAAGCCCUUGGAUAUCGCCAGGAUGAUCCCAGCUACCGUUCUUUUCACUCUGGUGGAUACGGCCAGGAUGCCUUGGGGAUGGACCCUAUGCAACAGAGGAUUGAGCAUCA	0.0939 ratio

Series 3 — technique: DHFR PCA, deep sequencing; medium: yeast; with: (+)-ABA 1.4 µM; reference: wild-type fitted maximum; reading: higher = stronger binding
Target: ABI1, truncated, D143A, DHFR fusion (Arabidopsis thaliana)
Notes: methotrexate growth selection, single substitutions
Parent: PYL1, truncated, DHFR fusion (Arabidopsis thaliana); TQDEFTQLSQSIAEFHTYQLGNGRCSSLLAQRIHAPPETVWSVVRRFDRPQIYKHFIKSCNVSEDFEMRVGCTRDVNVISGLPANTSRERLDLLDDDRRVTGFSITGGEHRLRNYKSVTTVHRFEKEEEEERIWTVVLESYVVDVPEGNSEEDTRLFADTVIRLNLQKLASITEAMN
Change	relative binding score [%]
E152G	24.4
P146A	25
I57F	-0.222
M176N	25.9
E151H	41
S140A	13.5
S150C	27.6
E4R	28.6
N85G	43.6
T39V	70.1
H16N	-12.4
V145H	-18.2
T154C	22.6
D3C	42.4
L20N	39.1
L112Y	-4.35
F124E	31
R45T	2.85
L93D	-0.0425

Series 4 — target: CCNB2, cyclin fold, Cln2 fusion (human); technique: yeast growth competition, sequencing; medium: yeast; notes: weak parent motif; reference: not given; reading: higher = stronger binding
Parent: CDKN1A docking peptide (human); SKACRRLFGPVDS; partner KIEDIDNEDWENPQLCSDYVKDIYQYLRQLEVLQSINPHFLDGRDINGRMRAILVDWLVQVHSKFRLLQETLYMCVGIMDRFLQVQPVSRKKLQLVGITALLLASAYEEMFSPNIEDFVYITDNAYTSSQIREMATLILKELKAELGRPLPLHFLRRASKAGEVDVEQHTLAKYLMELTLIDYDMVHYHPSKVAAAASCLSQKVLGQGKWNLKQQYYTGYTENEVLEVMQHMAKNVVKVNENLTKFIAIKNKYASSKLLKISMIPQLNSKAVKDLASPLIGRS
Change	normalised enrichment score
R6H	0.124
F8Q	0.153
R5Q	-0.199
R5S	0.00732
L7H	0.51
V11G	0.43
D12S	-0.236
R5C	-0.123
V11S	-0.0297
P10W	0.744
S1A	0.637

Series 5 — technique: protein-binding microarray; molecule type: double-stranded DNA, one strand shown; medium: in vitro; tested at: 250 nM; notes: 60-bp whole probe; with: salmon DNA 0.4 mg/ml; reference: random background probes; reading: higher = stronger binding; constant ends, left off below: GCCTAGCAC … GTCTTGATTCGCTTGACGCTGCTG
Target: Interferon regulatory factor 7, full length, phosphomimetic (IRF7, Homo sapiens, UniProt Q92985, residues 1-503, S101K/S471D/S472D/S475D/S476D/S477D/S483D/S484D/S487D)
Residues (chain): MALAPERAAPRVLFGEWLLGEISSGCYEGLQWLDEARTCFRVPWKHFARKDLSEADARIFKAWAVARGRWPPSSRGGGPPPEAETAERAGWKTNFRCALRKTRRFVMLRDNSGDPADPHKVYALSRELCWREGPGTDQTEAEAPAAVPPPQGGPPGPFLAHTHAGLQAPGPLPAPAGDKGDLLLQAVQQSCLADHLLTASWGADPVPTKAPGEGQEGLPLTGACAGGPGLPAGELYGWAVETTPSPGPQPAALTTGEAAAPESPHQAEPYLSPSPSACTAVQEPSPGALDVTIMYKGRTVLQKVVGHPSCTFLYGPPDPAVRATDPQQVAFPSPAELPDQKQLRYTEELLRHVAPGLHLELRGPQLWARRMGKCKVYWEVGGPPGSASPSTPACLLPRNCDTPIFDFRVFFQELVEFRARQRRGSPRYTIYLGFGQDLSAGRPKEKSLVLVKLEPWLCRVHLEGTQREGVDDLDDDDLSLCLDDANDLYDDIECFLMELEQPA
Oligonucleotide	log fluorescence [z-score]
TTTGGACTGCTACTGCTTTAGTGCTAG	-0.811
GAGGAGGGGCTGTTACTCTCGTGCTAG	-0.541
TTAGGACTGGGGGCTGGGTTAGTGCTA	1.29
TTAGGTCGCGGTCTCGGTTAGTGCTAG	1.56
TTAGGCCTCGGTTTCGGTTAGTGCTAG	8.71
GACGGTTTCGGGACTGGAGACGTGCTA	4.1
GACGATATCGGGTATGGAGACGTGCTA	-0.0874
GACGATATCGGGTTTCGAGAAGTGCTA	1.08
GGCGGTATCGGACTGGGGACGTGCTAG	-0.442
TCAGTTATCACTTCCAAACTGTGCTAG	0.602
GTAGGTATCCTTATCCTTTAGTGCTAG	-0.0779
GAGGATATCAGTATCGAGACGTGCTAG	-0.0368
TTAGGGATCGGGACTGGGTTAGTGCTA	-0.423
GACGATATCACTCTCGAGACGTGCTAG	0.16
TGAGGTTTTCTAATGTTTTTGTGCTAG	-0.00335
TCAGTTCTCCCTTTCAGTTTGTGCTAG	1.8
GACGGTACCGACTATCGGGACGTGCTA	-0.221
TTAGGTTGCGACTTTCGGTTAGTGCTA	1.57

For quick reference, copied from above (series 1):
Oligonucleotide	E-score
AAACGGAT	0.0623
AACACGAC	0.0344
GACCCTGA	-0.258
AGGCTTGA	-0.0391
CCTGCACG	-0.0853
CATGCATG	0.256
ACGAGGTA	-0.018
GGACGTCC	-0.134
GACTCGAC	-0.139
GCACACAA	0.0186
ACCGGAAT	-0.134
CGTCCCGA	-0.215
